Results collected from several papers.
Lines come from different studies, so protocols differ. Several values in a cell are separate wells, animals, samples, runs or records. ± gives the spread as reported.

SMILES | test | system | setting | plasma concentration
O=C(O)CCCCCCCCCCC(=O)O | – | healthy human volunteers, plasma | dose not given, 0 h, baseline phase, no drug | 65.4 ± 8.8 nM
C[C@@H]1CCO[C@H]2Cn3cc(C(=O)NCc4ccc(F)cc4F)c(=O)c(O)c3C(=O)N12 | population PK, post-hoc | infants aged ≥1 months, 3 to <6 kg, plasma | oral, 5 mg dispersible tablet, 24 h, steady state, geometric mean | 886 ng/mL
COc1cc2c(cc1OC)CN(CCc1ccc(NC(=O)c3cc(OC)c(OC)cc3NC(=O)c3cnc4ccccc4c3)cc1)CC2 | – | human, plasma | intravenous infusion, 5.9 mg/kg, 90 min | 3610 nM
C[C@H](CCC(=O)O)[C@H]1CC[C@H]2[C@@H]3[C@H](O)C[C@@H]4C[C@H](O)CC[C@]4(C)[C@H]3C[C@H](O)[C@]12C | – | healthy human volunteers, plasma | dose not given, 0 h, baseline phase, no drug | 60.1 ± 20.2 nM
Cc1c(C(=O)O)ccc2c3n(nc12)[C@@H]1[C@H](C3)N(CC2CC2)[C@@]2(C(=O)Nc3cc(Cl)ccc32)[C@H]1c1cccc(Cl)c1F | – | female BALB/c nude mice, SJSA-1 xenograft, plasma | oral, 2 mg/kg once daily, 2 h, individual animals | 2420 nM
C[C@H](CCC(=O)NCC(=O)O)[C@H]1CC[C@H]2[C@@H]3CC[C@@H]4C[C@H](O)CC[C@]4(C)[C@H]3C[C@H](O)[C@]12C | – | healthy human volunteers, plasma | oral, dose not given, 0 h, control phase, probe drugs alone | 290 ± 104 nM
CCOCc1nc(O)c(-c2nnc(Cc3ccc(Cl)cn3)o2)c(O)c1-c1c(OC)cccc1OC | – | anaesthetised rat, plasma | intravenous infusion, 100 µg/kg/min, 5 min | 7860 ± 201 nM
COc1cccc(-c2n[nH]c(SCc3ccccn3)n2)c1OC | – | Sprague-Dawley rats, both sexes | oral dietary, 100 mg/kg/day, day 7, 6 h | 4720 ng/mL
Cc1c(-c2ccc(N3CCc4cccc(C(=O)Nc5nc6ccccc6s5)c4C3)nc2C(=O)O)cnn1CC12CC3(C)CC(C)(C1)CC(OCCNCC[C@H](O)CO)(C3)C2 | – | anaesthetized male beagle dog | iv infusion, 0.1 mg/kg/min, 135 min | < 4 ng/mL
C[C@H]1O[C@@H](O[C@H]2CC[C@@]3(C)[C@@H](CC[C@]4(C)[C@@H]3C=C[C@]35OC[C@@]6(CCC(C)(C)C[C@H]63)[C@@H](O)C[C@]54C)[C@]2(C)CO)[C@H](O)[C@@H](O[C@@H]2O[C@H](CO)[C@@H](O)[C@H](O)[C@H]2O)[C@H]1O | UHPLC-MS/MS | mouse, plasma | oral, 50 mg/kg, 2 h | 4.79 ng/mL
C[C@H](CCC(=O)O)[C@H]1CC[C@H]2[C@@H]3[C@H](O)C[C@@H]4C[C@H](O)CC[C@]4(C)[C@H]3CC[C@]12C | – | healthy human volunteers, plasma | dose not given, 0 h, baseline phase, no drug | 797 ± 194 nM
CN1CCN(c2ccc(OC(F)(F)F)c(Nc3ncc4c(n3)-c3c(c(C(N)=O)nn3CCO)CC4)c2)CC1 | LC-MS/MS | human, plasma | oral, 12 mg/m2, 3 h post-dose | 95.9 ng/mL and 60.7 ng/mL
CCn1c(C(=O)N(C2CC2)C2CC2)cc2c3c(ncn3C)c(Nc3cc(C)n(C)n3)nc21 | – | cancer patients | oral, 200 mg single dose, day 1, 2.0 h | 2020 ng/mL
CCN1CCN(Cc2ccc(NC(=O)c3ccc(C)c(NC(=O)c4cncc(-c5cccs5)c4)c3)cc2C(F)(F)F)CC1 | LC-MS/MS | C57BL/6 mouse, plasma | intraperitoneal, 15 mg/kg single dose, 0.5 h | 520 ng/mL and 490 ng/mL and 605 ng/mL

A few entries again:
SMILES | test | system | setting | plasma concentration
O=C(O)CCCCCCCCCCC(=O)O | – | healthy human volunteers, plasma | dose not given, 0 h, baseline phase, no drug | 65.4 ± 8.8 nM
